Assay results gathered from unrelated publications.
Protocols differ between the studies behind these lines.
CSTF2: CSTF2 1-107 (Homo sapiens, UniProt P33240)
UniProt P33240, sequence (whole entry, unmodified, looked up): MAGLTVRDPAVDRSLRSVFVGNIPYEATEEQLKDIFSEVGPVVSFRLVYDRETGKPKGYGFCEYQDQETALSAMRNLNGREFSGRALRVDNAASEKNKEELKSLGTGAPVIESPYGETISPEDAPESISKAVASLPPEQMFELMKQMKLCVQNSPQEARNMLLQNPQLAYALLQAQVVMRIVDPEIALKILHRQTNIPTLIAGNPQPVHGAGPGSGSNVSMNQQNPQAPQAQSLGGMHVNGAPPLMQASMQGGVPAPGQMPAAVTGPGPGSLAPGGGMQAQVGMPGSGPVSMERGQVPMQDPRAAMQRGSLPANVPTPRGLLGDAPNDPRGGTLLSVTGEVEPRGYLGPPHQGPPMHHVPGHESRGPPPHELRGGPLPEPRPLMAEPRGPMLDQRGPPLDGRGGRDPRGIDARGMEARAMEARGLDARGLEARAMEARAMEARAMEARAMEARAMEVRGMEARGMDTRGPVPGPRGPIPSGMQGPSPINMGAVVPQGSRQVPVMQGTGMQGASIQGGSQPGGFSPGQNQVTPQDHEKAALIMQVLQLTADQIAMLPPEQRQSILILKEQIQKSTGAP
drrR1 full length assumed: drrR1 full length assumed (Streptomyces coeruleorubidus, UniProt P0DXY9)
UniProt B0V3F8, sequence (whole entry, looked up): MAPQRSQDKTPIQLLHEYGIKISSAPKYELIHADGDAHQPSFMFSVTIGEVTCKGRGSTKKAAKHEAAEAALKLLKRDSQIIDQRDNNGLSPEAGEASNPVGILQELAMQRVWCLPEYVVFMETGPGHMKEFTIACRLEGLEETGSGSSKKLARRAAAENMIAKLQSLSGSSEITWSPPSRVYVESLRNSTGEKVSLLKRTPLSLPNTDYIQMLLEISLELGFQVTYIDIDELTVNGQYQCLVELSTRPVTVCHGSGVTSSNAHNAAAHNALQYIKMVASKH

| Substance | tested on | assay | system | conditions | how to read | measurement | value |
| --- | --- | --- | --- | --- | --- | --- | --- |
| insulin human | – | refers to: CPS1 mRNA | uninfected mouse, brain | i.p., dose not given | relative to: PBS | fold change | 1.19 |
| UUUUUUUUUUUUUUUUUUUUUUUUUUUUUU (ssRNA) | SKI2/SKI3/SKI8 1-1287, 1-1432, 1-397 (Saccharomyces cerevisiae) | cryo-EM | RNA | together with: AMP-PNP | – | binding | binds |
| AAATGTGGTTGATCCAGTCAACTATTTTG (dsDNA) | mexR 1-142 C30S/C62S (Pseudomonas aeruginosa, UniProt P52003) | EMSA | double-stranded DNA, one strand shown | – | – | binding | binds |
| ATTAGTTTGTATGCAAACCATT (dsDNA) | MarR-family transcriptional regulator 1-147 R93A (Clostridioides difficile, UniProt A0A9R0BIW1) | EMSA | double-stranded DNA, one strand shown | – | – | binding | no binding |
| AUUUUAUGUUUCAGGU (ssRNA (simian virus 40); phosphorothioate at nucleotide 9) | CSTF2 | NMR PRE | RNA | – | – | binding | binds |
| RNA 1 CACCCGUGCAAAAAUGCAGGGGUCUAAAACUGAGCGGAUAACCUCUCUAUGG / RNA 2 CGUACCAUAGAGAGGUUAUCCGCUCACCGA (crRNA/target DNA; crRNA paired with target) | Cas13d full length assumed (Eubacterium siraeum, UniProt B0MS50) | cryo-EM | – | intermediate state | – | binding | binds |
| GTCTTTAATAATTAAACTAGTGTCTTGACAGATGTAAACAACAGGTATAAAC (dsDNA) | niaR 1-174 K97Q (Streptococcus mutans, UniProt Q8DVX8) | EMSA | double-stranded DNA, one strand shown | – | – | binding | no binding |
| CCTTAAGCGAGCCTTAAGTGA (dsDNA) | carR 1-223 D51E/R211A (Pseudomonas aeruginosa, UniProt Q9I0I1) | EMSA | double-stranded DNA, one strand shown | – | – | binding | no binding |
| RNA 1 GCAUGGCUUAGGUCAACAUAUCUAUGAAACUUAUGGGGAUACUUGGUCAGGAGUGGAAGCAUAAUAAGAAUUCUGCAACAACUGC / RNA 2 GCAGUUGUUGCAGAAUUCUUAUUAUGCUUCCACUCCUGACCAAGUAUCCCCAUAAGUUUCAUAGAUAUGUUGACCUAAGCCAUGC (dsRNA (HIV-1); blunt) | prkra full length assumed (Danio rerio, UniProt B0V3F8) | EMSA | double-stranded RNA | – | – | binding | binds |
| GGGCGGGGGAGACAUCCUUGUCUCGUGCCCGACCCCGCCC (structured RNA) | HNRNPA1 UP1 1-196 (Homo sapiens) | ITC | folded RNA | – | – | binding | no binding |
| RNA 1 CACCCGUGCAAAAAUGCAGGGGUCUAAAACUGAGCGGAUAACCUCUCUAUGG / RNA 2 GGGUUCGUACCAUAGAGAGGUGAUCCGCUCACCGAGAUCG (crRNA/target DNA; mismatch at position 10) | Cas13d full length assumed R295A/H300A/R849A/H854A (Eubacterium siraeum, UniProt B0MS50) | EMSA | – | together with: EDTA 20 mM | – | binding | binds |
| GGGAGUCGACCGACCAGAAUGAUUGUUGUGUGUAUUGGGUGGCGGUAUGUGCGUCUACAUCUAGACUCAU (XNA; 2'-fluoro pyrimidines) | ALB 25-609 (Homo sapiens, UniProt P02768) | pull-down | modified nucleic acid | – | – | binding | binds |
| AUUUUAUGUUUCAGGU (ssRNA (simian virus 40); phosphorothioate at nucleotide 13) | CSTF2 | NMR PRE | RNA | – | – | binding | binds |
| ACGTTTACAAACACCTATGAATGTA (dsDNA) | nalD full length assumed (Pseudomonas aeruginosa, UniProt Q9HY46) | EMSA | double-stranded DNA, one strand shown | – | – | binding | binds |
| GCCGCCCCTCCCGTGTGCTCGCGCCCTGCCTCCGGCACCAAACTGAGTACAGCGTACCCGATTACGCGTACGCCGTACCCAGTTTTTCTTCGAGGACCTAAGCTGGCTCC (dsDNA) | drrR1 full length assumed | competition | double-stranded DNA, one strand shown | excess unlabelled DNA | – | binding | binds |
| TTTATAAAAAACCAATATATGTCTTGACACATGTAAAAAACGTTGTATAATG (dsDNA) | niaR 1-174 K97R (Streptococcus mutans, UniProt Q8DVX8) | EMSA | double-stranded DNA, one strand shown | – | – | binding | binds |
| AUUUUAUGUUUCAGGU (ssRNA) | CSTF2 1-107 K57E (Homo sapiens, UniProt P33240) | ITC | RNA | 27 °C | – | binding | no binding |
| GCCGCCCCTCCCGTGTGCTCGCGCCCTGCCTCCGGCACCATTTCTTCGAGGACCTAAGCTGGCTCC (dsDNA) | drrR1 full length assumed | competition | double-stranded DNA, one strand shown | excess unlabelled DNA | – | binding | no binding |

Excerpt of the above:
| Substance | tested on | assay | system | conditions | how to read | measurement | value |
| --- | --- | --- | --- | --- | --- | --- | --- |
| AUUUUAUGUUUCAGGU (ssRNA (simian virus 40); phosphorothioate at nucleotide 13) | CSTF2 | NMR PRE | RNA | – | – | binding | binds |
| ACGTTTACAAACACCTATGAATGTA (dsDNA) | nalD full length assumed (Pseudomonas aeruginosa, UniProt Q9HY46) | EMSA | double-stranded DNA, one strand shown | – | – | binding | binds |
